Measurements from different studies.
Numbered parts are unrelated; each lists some results of a single study. Changes are numbered by the printed parent chain.

Sample 1 — technique: protein binding microarray; molecule type: double-stranded DNA, one strand shown; matrix: in vitro; concentration: not given; baseline: not given; reading: higher = stronger binding
Target: Histone acetyltransferase KAT6A, both winged helices, GST fusion (KAT6A, Homo sapiens, UniProt Q92794, residues 1-181)
Notes: 8-mer, flanks averaged, mean of 2 arrays, mostly near background
Construct (chain): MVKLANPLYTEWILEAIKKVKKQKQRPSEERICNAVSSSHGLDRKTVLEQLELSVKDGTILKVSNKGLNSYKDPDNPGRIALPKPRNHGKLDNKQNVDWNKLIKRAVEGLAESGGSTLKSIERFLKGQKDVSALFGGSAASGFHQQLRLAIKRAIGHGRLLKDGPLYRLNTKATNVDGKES
Sequence | E-score
AGCATGCA | -0.139
CGACATCG | 0.129
AGCATGCC | 0.0677
CATCCACC | -0.112
AGCGTATC | 0.103
AACGCCAA | -0.0444
CGAACACG | 0.187
CCGGAAAG | 0.109
AGGATTAC | -0.0631
GAACGAAC | 0.098
ACAAAATG | -0.0574
AGTTACCA | -0.0118
ACCAAGCC | 0.0286
CATGTGGC | -0.0306
ATTTGAGG | -0.0968
AGTCTTAC | -0.0265

Sample 2 — technique: protein-binding microarray; molecule type: double-stranded DNA, one strand shown; matrix: in vitro; concentration: not given; reading: higher = stronger binding
Target: Cyclic AMP-dependent transcription factor ATF-1 (ATF1, Homo sapiens, UniProt P18846, residues 1-271, full length assumed)
Notes: k-mer, scored over probes, only values ≥0.25
Residues (chain): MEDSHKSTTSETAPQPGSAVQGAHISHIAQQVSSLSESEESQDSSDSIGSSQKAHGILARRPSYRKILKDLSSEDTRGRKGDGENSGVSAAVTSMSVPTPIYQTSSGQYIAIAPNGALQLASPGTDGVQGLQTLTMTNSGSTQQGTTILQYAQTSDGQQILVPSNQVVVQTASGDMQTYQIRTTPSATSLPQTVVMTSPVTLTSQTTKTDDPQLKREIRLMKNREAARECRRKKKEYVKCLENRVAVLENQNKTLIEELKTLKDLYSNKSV
Sequence | E-score
ACACCAA | 0.289
GTCATCA | 0.405
ACGTATA | 0.393
CGACGTA | 0.421
ACGAAAG | 0.267
AATGACA | 0.266
ATTACGA | 0.285
ACGCATC | 0.308
ACGACGT | 0.383
TACGTGA | 0.36
AGTGACG | 0.477
ATTCGTC | 0.293

Sample 3 — target: CCNB1, cyclin fold, Cln2 fusion (human); technique: yeast growth competition, sequencing; matrix: yeast; notes: weak parent motif; baseline: not given; reading: higher = stronger binding
Starting sequence: WEE1 docking peptide (human); HKTFRKLRLFDTP
Variant | normalised enrichment score
HKTFRKLYLFDTP [R8Y] | 1.38
HKTFRKERLFDTP [L7E] | 0.29
HKTFRKCRLFDTP [L7C] | 1.53
HKTFRKLRRFDTP [L9R] | -0.311
HKTCRKLRLFDTP [F4C] | 0.532
HKTFRKLRLFDYP [T12Y] | 0.478
EKTFRKLRLFDTP [H1E] | 0.193
HKTFRNLRLFDTP [K6N] | 0.503
HKNFRKLRLFDTP [T3N] | 0.0753
HKTFRKLRLFTTP [D11T] | 0.623
HKTFRKLRLFDTV [P13V] | 0.574
HKTFRKLMLFDTP [R8M] | 0.304
HKTFRKLRLFDRP [T12R] | 0.796
HKTFWKLRLFDTP [R5W] | 0.375

Mixed results
Molecule | target | assay | test system | setting | how to read | endpoint | result
PhoQ, residues 284 288 289 292 302 303 SSTMSV | PhoP, residues 12 14 15 18 19 STHWV (Escherichia coli, UniProt P23836) | Sort-seq, refers to: YFP reporter | E. coli | PhoQ-PhoP variant library, together with: 10 µM Mg2+ | baseline: high Mg2+ state, higher = stronger signaling | fold induction | 18.4
